Published values pooled from the literature.
Each line is one published result; not all experiments were run side by side. ± gives the spread as reported. Converted amounts (≈) assume the structure as drawn.
Organism: Klebsiella pneumoniae

Molecule = N#CC(=Cc1cn(-c2ccccc2)nc1-c1ccccc1)C1=NC(=O)CS1; test = microbial growth, broth dilution; measurement = MIC; result = 0.49 µg/mL (≈ 1.32 µM)
Molecule = CC1(C)S[C@@H]2[C@H](NC(=O)[C@H](N)c3ccc(O)cc3)C(=O)N2[C@H]1C(=O)O; system = community-acquired pneumonia patients; setting = Fine score 70 or more; measurement = sensitive strains; result = 0%
Molecule = thrombospondin-1; system = 43816, Thbs1 knock-out mice, peritoneal neutrophils; setting = intraperitoneal, 10 µg/mouse, dosed 30 min before infection; scale = reference: vehicle; measurement = fold reduction in CFU; result = 5.5 ± 0.3 fold
Molecule = CC[C@H]1OC(=O)[C@H](C)[C@@H](O[C@H]2C[C@@](C)(OC)[C@@H](O)[C@H](C)O2)[C@H](C)[C@@H](O[C@@H]2O[C@H](C)C[C@H](N(C)C)[C@H]2O)[C@](C)(O)C[C@@H](C)C(=O)[C@H](C)[C@@H](O)[C@]1(C)O; system = community-acquired pneumonia patients; setting = Fine score below 70; measurement = sensitive strains; result = 0%
Molecule = CC[C@H](C)[C@H](NC(=O)[C@@H]1CCCN1C(=O)[C@H](CCCNC(=N)N)NC(=O)[C@@H]1CCCN1C(=O)CNC(=O)[C@@H]1CCCN1C(=O)[C@H](CCCNC(=N)N)NC(=O)[C@@H]1CCCN1C(=O)[C@H](Cc1ccccc1)NC(=O)[C@@H]1CCCN1C(=O)[C@H](CC(C)C)NC(=O)[C@@H]1CCCN1C(=O)[C@H](CCCNC(=N)N)NC(=O)[C@@H]1CCCN1C(=O)[C@@H](NC(=O)[C@@H]1CCCN1C(=O)[C@H](CCCNC(=N)N)NC(=O)[C@@H]1CCCN1C(=O)CNC(=O)[C@@H]1CCCN1C(=O)[C@H](CCCNC(=N)N)NC(=O)[C@@H]1CCCN1C(=O)[C@H](Cc1ccccc1)NC(=O)[C@@H]1CCCN1C(=O)[C@H](CC(C)C)NC(=O)[C@@H]1CCCN1C(=O)[C@H](CCCNC(=N)N)NC(=O)[C@@H]1CCCN1C(=O)[C@@H](NC(=O)[C@@H]1CCCN1C(=O)[C@H](CCCNC(=N)N)NC(=O)[C@@H]1CCCN1)[C@@H](C)CC)[C@@H](C)CC)C(=O)N1CCC[C@H]1C(=O)N[C@@H](CCCNC(=N)N)C(=O)N1CCC[C@H]1C(=O)O; test = SDS-PAGE; setting = 100 µM, with: polysaccharide 300 µg/mL; scale = reference: bac7; measurement = relative polysaccharide aggregation; result = 0.32
Molecule = CC[C@H]1OC(=O)[C@H](C)[C@@H](O[C@H]2C[C@@](C)(OC)[C@@H](O)[C@H](C)O2)[C@H](C)[C@@H](O[C@@H]2O[C@H](C)C[C@H](N(C)C)[C@H]2O)[C@](C)(O)C[C@@H](C)CN(C)[C@H](C)[C@@H](O)[C@]1(C)O; system = community-acquired pneumonia patients; setting = Fine score 70 or more; measurement = sensitive strains; result = 0%
Molecule = CCCCCCCCCC(=O)N[C@@H](CCN)C(=O)N[C@H](C(=O)N[C@H](C(=O)N[C@H](CC(C)C)C(=O)N[C@@H](CC(C)C)C(=O)N[C@@H](CCN)C(=O)N[C@@H](C(=O)N[C@@H](CC(C)C)C(=O)N[C@@H](CO)C(N)=O)C(C)C)[C@@H](C)O)[C@@H](C)CC; test = checkerboard, refers to: rifampicin; system = ATCC 13883; setting = sensitization to antibiotics, with: compound at 4 µg/mL; measurement = MIC; result = > 2 µg/mL
Molecule = CSc1c(-c2nc3ccccc3s2)c(N)n(NS(=O)(=O)c2ccc(C)cc2)c(=O)c1C#N; test = microbial growth, well diffusion; setting = 15000 µg/mL, 24 h; measurement = inhibition zone; result = 32.2 mm
Molecule = CCCCCCCC(=O)N[C@@H](CCCN)C(=O)N[C@H](C(=O)N[C@@H](CCCN)C(=O)N[C@H](Cc1ccccc1)C(=O)N[C@@H](CC(C)C)C(=O)N[C@@H](CCCN)C(=O)N[C@@H](C(=O)N[C@@H](CC(C)C)C(=O)N[C@@H](CO)C(N)=O)C(C)C)[C@@H](C)CC; test = checkerboard, refers to: rifampicin; system = ATCC 13883; setting = sensitization to antibiotics, with: compound at 4 µg/mL; measurement = MIC; result = 0.0078 to 0.0156 µg/mL
Molecule = CSc1c(-c2nc3ccccc3s2)c(N)n(NS(=O)(=O)c2ccccc2)c(=O)c1C#N; test = microbial growth, well diffusion; setting = 15000 µg/mL, 24 h; measurement = inhibition zone; result = 19 mm
Molecule = CCOC(=O)c1c(N)csc1-c1cn(-c2ccccc2)nc1-c1ccc(C)cc1; test = broth microdilution; system = clinical urinary isolate; setting = compound gamma-irradiated 5 kGy; measurement = MIC; result = 0.25 ± 0.2 µg/mL (≈ 0.62 µM)
Molecule = CNC(C)C1CCC(N)C(OC2C(N)CC(N)C(OC3OCC(C)(O)C(NC)C3O)C2O)O1 (stereo not shown); test = microbial growth, well diffusion; setting = 15000 µg/mL, 24 h; measurement = inhibition zone; result = 32 mm
Molecule = colistin; system = NCTC 13424; setting = 5% CO2; measurement = MIC; result = 4 µg/mL

Excerpt of the above:
Molecule = N#CC(=Cc1cn(-c2ccccc2)nc1-c1ccccc1)C1=NC(=O)CS1; test = microbial growth, broth dilution; measurement = MIC; result = 0.49 µg/mL (≈ 1.32 µM)
Molecule = CC1(C)S[C@@H]2[C@H](NC(=O)[C@H](N)c3ccc(O)cc3)C(=O)N2[C@H]1C(=O)O; system = community-acquired pneumonia patients; setting = Fine score 70 or more; measurement = sensitive strains; result = 0%
